{"data": "Assay results pooled from the literature", "PARP1": "Poly [ADP-ribose] polymerase 1 (PARP1, Homo sapiens, UniProt P09874)", "note": "Lines come from different studies, so protocols differ. Numbers after ± are the reported error.", "sequence of UniProt P09874 (whole entry, looked up)": "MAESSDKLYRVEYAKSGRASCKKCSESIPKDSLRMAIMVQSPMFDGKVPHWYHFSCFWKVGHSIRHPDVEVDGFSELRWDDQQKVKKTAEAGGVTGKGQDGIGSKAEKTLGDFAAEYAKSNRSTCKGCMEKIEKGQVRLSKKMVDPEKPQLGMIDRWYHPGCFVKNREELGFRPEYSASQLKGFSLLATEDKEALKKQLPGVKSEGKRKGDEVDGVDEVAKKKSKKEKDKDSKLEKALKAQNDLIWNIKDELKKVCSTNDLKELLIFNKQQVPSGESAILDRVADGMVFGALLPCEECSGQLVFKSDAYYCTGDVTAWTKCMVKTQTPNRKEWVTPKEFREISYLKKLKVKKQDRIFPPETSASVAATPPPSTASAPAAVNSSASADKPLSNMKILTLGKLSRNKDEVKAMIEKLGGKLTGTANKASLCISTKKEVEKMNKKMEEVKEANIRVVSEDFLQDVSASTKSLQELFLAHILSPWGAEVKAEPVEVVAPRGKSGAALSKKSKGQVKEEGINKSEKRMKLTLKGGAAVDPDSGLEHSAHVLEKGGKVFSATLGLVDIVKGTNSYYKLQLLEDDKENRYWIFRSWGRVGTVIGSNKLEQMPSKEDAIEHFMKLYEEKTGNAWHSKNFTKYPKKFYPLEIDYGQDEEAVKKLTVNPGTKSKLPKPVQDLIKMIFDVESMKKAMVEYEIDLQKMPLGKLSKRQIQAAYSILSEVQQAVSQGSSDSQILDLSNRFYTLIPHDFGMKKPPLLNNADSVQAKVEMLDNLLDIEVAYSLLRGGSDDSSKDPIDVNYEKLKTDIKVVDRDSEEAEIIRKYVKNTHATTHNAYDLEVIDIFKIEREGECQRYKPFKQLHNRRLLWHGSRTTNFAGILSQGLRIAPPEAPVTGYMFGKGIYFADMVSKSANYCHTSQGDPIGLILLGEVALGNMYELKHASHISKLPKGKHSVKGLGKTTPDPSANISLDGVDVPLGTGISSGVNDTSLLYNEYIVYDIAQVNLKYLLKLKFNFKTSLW", "sequence of UniProt O75874 (whole entry, unmodified, looked up)": "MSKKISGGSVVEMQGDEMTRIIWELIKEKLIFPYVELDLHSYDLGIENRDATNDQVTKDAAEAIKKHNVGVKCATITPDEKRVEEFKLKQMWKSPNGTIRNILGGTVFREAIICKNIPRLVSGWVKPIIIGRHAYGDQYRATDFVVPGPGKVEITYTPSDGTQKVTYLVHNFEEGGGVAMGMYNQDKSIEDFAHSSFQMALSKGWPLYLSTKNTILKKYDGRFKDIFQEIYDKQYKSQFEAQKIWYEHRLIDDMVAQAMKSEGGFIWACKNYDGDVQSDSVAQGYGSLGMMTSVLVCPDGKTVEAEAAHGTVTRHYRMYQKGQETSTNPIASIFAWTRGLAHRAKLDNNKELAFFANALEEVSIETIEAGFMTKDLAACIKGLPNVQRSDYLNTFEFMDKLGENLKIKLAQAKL", "sequence of UniProt P23025 (whole entry, looked up)": "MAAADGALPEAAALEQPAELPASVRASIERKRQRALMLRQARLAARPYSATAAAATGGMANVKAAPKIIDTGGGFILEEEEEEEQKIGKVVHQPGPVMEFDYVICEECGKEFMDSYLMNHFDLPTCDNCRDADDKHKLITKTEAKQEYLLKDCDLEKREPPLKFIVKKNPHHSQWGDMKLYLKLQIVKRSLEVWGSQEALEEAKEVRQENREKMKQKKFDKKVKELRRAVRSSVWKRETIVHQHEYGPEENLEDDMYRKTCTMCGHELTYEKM", "sequence of UniProt O15379 (whole entry, looked up)": "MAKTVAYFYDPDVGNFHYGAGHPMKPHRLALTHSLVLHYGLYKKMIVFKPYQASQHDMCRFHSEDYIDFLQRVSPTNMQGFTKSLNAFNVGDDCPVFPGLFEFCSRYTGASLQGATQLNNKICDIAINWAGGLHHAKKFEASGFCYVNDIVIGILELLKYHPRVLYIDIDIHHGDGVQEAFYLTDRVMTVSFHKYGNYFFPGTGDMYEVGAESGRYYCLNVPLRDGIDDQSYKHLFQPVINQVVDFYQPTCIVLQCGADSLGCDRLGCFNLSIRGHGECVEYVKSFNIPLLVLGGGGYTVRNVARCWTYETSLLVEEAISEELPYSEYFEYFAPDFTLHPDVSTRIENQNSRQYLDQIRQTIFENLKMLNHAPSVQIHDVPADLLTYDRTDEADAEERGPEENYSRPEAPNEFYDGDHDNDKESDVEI", "sequence of UniProt P27487 (whole entry, looked up)": "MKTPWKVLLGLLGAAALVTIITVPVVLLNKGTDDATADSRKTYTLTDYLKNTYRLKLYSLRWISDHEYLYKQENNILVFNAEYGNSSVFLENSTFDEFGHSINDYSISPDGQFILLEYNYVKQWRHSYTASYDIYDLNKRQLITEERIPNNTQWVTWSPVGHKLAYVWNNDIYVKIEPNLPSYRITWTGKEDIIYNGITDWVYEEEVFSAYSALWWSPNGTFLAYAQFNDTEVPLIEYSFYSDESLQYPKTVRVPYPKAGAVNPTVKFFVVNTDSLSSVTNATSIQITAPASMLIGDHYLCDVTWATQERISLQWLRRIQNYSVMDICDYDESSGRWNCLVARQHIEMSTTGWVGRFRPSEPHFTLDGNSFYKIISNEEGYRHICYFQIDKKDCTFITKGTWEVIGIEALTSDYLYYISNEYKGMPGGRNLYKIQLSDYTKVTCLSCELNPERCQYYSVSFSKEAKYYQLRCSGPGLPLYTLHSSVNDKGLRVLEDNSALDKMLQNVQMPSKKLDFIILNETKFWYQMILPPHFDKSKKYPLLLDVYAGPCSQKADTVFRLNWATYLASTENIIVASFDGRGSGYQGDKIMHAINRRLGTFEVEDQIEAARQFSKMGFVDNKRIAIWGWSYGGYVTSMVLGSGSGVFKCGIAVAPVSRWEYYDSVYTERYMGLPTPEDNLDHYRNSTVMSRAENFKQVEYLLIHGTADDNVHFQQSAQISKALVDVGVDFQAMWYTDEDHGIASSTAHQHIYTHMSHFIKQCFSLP", "sequence of UniProt Q96D96 (whole entry, unmodified, looked up)": "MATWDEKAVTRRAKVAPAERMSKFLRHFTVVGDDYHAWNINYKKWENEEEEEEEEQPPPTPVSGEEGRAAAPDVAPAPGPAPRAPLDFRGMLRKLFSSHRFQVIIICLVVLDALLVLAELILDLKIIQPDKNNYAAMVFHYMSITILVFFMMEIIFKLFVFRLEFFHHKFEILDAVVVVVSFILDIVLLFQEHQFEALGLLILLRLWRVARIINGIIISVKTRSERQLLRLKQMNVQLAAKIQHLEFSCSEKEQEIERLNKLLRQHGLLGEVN", "sequence of UniProt O00519 (whole entry, looked up)": "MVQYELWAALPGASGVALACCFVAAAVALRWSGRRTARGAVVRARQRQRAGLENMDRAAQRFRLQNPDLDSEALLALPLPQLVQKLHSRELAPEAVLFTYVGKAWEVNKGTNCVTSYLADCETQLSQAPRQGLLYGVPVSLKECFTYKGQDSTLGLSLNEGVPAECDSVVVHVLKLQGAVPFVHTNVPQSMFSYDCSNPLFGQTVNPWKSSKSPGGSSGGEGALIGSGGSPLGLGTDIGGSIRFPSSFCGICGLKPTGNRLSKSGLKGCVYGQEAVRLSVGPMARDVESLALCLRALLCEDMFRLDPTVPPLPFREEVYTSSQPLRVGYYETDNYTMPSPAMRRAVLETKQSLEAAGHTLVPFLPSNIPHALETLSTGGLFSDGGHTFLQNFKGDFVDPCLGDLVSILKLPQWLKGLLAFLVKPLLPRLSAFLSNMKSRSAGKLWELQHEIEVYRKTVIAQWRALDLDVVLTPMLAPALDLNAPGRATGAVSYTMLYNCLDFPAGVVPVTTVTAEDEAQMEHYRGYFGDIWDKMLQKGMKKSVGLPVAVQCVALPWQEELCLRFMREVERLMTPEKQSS", "sequence of UniProt Q13304 (whole entry, looked up)": "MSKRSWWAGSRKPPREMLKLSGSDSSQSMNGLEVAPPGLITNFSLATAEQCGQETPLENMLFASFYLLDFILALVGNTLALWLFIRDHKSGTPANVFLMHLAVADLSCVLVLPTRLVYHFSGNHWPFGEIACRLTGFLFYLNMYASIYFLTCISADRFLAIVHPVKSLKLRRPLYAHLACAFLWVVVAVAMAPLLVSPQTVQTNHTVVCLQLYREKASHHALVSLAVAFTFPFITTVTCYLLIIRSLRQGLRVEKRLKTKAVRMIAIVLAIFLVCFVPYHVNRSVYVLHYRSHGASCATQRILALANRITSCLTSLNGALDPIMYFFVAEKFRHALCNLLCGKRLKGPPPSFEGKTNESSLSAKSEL", "sequence of UniProt Q86YT5 (whole entry, looked up)": "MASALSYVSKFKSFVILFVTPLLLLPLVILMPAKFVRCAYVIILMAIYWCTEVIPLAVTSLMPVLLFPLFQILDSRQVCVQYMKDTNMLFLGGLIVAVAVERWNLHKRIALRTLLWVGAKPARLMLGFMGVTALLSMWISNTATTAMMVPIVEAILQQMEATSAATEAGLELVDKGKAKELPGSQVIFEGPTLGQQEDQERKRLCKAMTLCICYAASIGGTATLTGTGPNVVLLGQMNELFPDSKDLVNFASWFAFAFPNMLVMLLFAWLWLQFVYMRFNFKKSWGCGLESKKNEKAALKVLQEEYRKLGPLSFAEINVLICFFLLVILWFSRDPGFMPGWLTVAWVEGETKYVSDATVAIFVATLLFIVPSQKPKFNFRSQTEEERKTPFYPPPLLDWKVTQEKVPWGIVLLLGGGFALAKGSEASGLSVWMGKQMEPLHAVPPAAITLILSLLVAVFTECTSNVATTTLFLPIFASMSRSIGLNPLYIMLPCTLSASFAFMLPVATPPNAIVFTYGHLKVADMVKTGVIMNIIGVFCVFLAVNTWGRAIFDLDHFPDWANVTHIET"}
{"SMILES": "NC(=O)c1cccc2c1O[C@@H](CN1CCN(c3ncccn3)CC1)CO2", "target": "PARP1", "IC50 [nM]": "> 5000"}
{"SMILES": "CCCCC(C(=O)COc1c(F)c(F)cc(F)c1F)n1cc(C2(N)CCN(C(N)=O)CC2)nn1 (stereo not shown)", "target": "DPAP1 (Plasmodium falciparum, UniProt Q8IIJ9)", "assay": "inhibitor, fluorogenic substrate", "system": "Plasmodium falciparum lysate", "setting": "30 min", "IC50 [nM]": "> 20000"}
{"SMILES": "CCc1ccc(Cl)cc1-n1c(C=C(C)C)c(C(=O)N2CCNCC2)cc(-c2nc(-c3ccc(Cl)cc3)cs2)c1=O (single isomer, unassigned)", "target": "IDH1 (Homo sapiens, UniProt O75874, R132C)", "assay": "enzyme activity, inhibitor", "IC50 [nM]": 540}
{"SMILES": "Cn1c(=O)c(=O)n(C)c2cc(S(=O)(=O)NNC(=O)c3ccccc3)ccc21", "target": "DPP4 (Homo sapiens, UniProt P27487)", "assay": "enzyme activity, inhibitor, fluorescence", "IC50 [nM]": 0.095}
{"SMILES": "NC(=O)c1cccc2c1OCCN2", "target": "PARP1", "IC50 [nM]": "11000 ± 1900"}
{"SMILES": "COc1ccc(-c2cc(-c3ccc(NC(=O)CSc4nc5ccccc5c(=O)n4-c4ccccc4)cc3)nc(N)c2C#N)cc1", "target": "PARP1", "assay": "enzyme activity", "IC50 [nM]": 33.3}
{"SMILES": "O=C(NC1CCCCC1)OCc1cn(Cc2cc(F)cc(F)c2)nn1", "target": "FAAH (Homo sapiens, UniProt O00519)", "assay": "enzyme activity, inhibitor, fluorescence", "setting": "cell membranes", "IC50 [nM]": 216}
{"SMILES": "CC(=O)Nc1ccc(NC(=S)NC(=O)c2ccc(C(C)(C)C)cc2)cc1", "target": "SIRT3 (Homo sapiens, UniProt Q9NTG7)", "IC50 [nM]": "> 300000"}
{"SMILES": "Cc1ccccc1C(C(=O)NC1CCCCC1)N(C(=O)Cn1ccnc1C)c1cccc(F)c1 (stereo not shown)", "target": "IDH1 (Homo sapiens, UniProt O75874, R132H)", "assay": "enzyme activity, inhibitor", "setting": "racemic compound, added: α-ketoglutarate", "IC50 [nM]": "< 50"}
{"SMILES": "CC1=NN(c2cccc(C(=O)O)c2)C(=O)/C1=C\\c1ccc(-c2ccc(Cl)c(C(=O)NC3CC3)c2)o1", "target": "DNA repair protein complementing XP-A cells (Homo sapiens, UniProt P23025)", "assay": "binding to cisplatin-DNA, EMSA", "setting": "full-length XPA", "IC50 [nM]": "> 25000"}
{"SMILES": "C[C@H](CO)N1C[C@H](C)[C@H](CN(C)Cc2ccc(C(=O)Nc3ccccc3N)cc2)Oc2ccc(N(C)C)cc2CC1=O", "target": "HDAC3 (Homo sapiens, UniProt O15379)", "assay": "enzyme activity, inhibitor", "setting": "with preincubation", "IC50 [nM]": 1300}
{"SMILES": "O=C(O)c1ccc(OCCCc2ccc(OCCCCOC3CCCCC3)cc2)c(C(=O)NC2CCCC(C(=O)O)C2)c1 (stereo not shown)", "target": "Uracil nucleotide/cysteinyl leukotriene receptor, long isoform (GPR17, Homo sapiens, UniProt Q13304)", "assay": "calcium mobilization, antagonist", "system": "1321N1 stably expressing GPR17", "setting": "resynthesised compound", "IC50 [nM]": 21000}
{"SMILES": "[Cl-].[Cl-].[Zn+2]", "target": "HVCN1 (Homo sapiens, UniProt Q96D96, D130H)", "assay": "proton current, inhibitor, whole-cell voltage clamp", "system": "human cells", "setting": "pH 6.5, test pulse 120 mV", "IC50 [nM]": 3000}
{"SMILES": "O=C(NCc1ccc(F)cc1)C1CCN(S(=O)(=O)c2cc(Cl)cc(Cl)c2)CC1", "target": "Na(+)/citrate cotransporter (Homo sapiens, UniProt Q86YT5)", "assay": "citrate uptake, inhibitor", "system": "HepG2", "setting": "30 min preincubation, inhibitor also during uptake", "IC50 [nM]": "118 ± 22"}
{"SMILES": "CC(C)C[C@H](NC(=O)[C@H](CCc1ccccc1)NC(=O)CN1CCOCC1)C(=O)N[C@@H](Cc1ccccc1)C(=O)N[C@@H](CC(C)C)C(=O)[C@@]1(C)CO1", "target": "20S proteasome beta subunits, part β2 subunit (Plasmodium falciparum, UniProt Q8I261+Q8I6T3)", "assay": "enzyme activity", "setting": "added: Z-VLR-amc 25 µM, PA28α 200 nM", "IC50 [nM]": "13.4 ± 0.8"}
{"SMILES": "O=c1[nH]c2ccccc2n1C1CCN(CCCC(c2ccc(F)cc2)c2ccc(F)cc2)CC1", "target": "ABCC1 (Homo sapiens, UniProt P33527)", "assay": "efflux, inhibitor", "system": "SupT1-Vin overexpressing ABCC1", "setting": "added: BODIPY FL verapamil 100 nM", "IC50 [nM]": "9700 ± 8200"}
{"SMILES": "Nc1nc2c(ncn2[C@@H]2O[C@H](COP(=O)(O)O)[C@@H](O)[C@H]2O)c(=O)[nH]1", "target": "nucleoside diphosphate kinase A/B human", "assay": "autophosphorylation, inhibitor", "system": "native membranes", "setting": "4 °C, biphasic curve, unreliable", "IC50 [nM]": "~30000"}
{"SMILES": "NC(=O)c1ccc(N)c2c1OCCO2", "target": "PARP1", "IC50 [nM]": "> 5000"}
{"SMILES": "O=C(O)[C@H]1NCC[C@@H]1[C@@H](C(=O)O)c1ccccc1", "target": "AMPA receptor, rat", "assay": "binding", "system": "cortical synaptosomes", "setting": "added: [3H]-AMPA", "IC50 [nM]": "> 100000"}
